Published values gathered from unrelated publications.
Protocols differ between the studies behind these lines.
Sequence of UniProt P08183 (whole entry, looked up): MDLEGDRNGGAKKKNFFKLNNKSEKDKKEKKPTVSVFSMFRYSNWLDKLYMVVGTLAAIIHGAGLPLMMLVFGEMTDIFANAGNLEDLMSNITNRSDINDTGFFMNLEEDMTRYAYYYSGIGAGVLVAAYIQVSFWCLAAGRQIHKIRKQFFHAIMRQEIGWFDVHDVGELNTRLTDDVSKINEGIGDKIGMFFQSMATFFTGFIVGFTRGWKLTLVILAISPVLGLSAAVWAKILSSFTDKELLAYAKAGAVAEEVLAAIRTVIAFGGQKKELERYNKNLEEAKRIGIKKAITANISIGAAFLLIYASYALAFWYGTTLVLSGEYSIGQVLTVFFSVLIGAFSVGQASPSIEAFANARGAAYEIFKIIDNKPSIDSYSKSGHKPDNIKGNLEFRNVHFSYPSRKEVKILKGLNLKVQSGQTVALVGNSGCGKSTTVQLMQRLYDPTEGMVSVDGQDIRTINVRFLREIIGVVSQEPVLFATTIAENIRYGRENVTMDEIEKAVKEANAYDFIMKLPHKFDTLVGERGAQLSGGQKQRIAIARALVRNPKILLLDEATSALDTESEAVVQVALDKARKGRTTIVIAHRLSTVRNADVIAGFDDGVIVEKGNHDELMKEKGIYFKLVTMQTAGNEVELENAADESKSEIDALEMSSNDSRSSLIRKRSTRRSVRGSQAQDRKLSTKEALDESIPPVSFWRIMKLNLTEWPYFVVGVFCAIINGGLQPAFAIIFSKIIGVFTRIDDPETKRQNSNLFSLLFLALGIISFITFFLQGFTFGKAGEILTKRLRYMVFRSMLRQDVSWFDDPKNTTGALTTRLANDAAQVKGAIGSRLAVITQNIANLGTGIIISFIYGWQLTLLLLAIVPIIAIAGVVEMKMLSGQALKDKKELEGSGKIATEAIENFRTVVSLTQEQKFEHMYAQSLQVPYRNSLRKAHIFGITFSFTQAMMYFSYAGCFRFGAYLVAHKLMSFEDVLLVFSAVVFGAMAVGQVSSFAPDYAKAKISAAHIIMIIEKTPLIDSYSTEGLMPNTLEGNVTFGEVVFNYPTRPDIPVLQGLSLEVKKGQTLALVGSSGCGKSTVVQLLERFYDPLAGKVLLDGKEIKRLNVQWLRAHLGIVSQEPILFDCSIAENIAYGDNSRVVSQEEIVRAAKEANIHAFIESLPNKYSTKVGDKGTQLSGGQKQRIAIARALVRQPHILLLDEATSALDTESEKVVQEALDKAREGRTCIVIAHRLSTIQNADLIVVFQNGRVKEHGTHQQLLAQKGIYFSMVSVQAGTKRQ
Sequence of UniProt Q12809 (whole entry, looked up): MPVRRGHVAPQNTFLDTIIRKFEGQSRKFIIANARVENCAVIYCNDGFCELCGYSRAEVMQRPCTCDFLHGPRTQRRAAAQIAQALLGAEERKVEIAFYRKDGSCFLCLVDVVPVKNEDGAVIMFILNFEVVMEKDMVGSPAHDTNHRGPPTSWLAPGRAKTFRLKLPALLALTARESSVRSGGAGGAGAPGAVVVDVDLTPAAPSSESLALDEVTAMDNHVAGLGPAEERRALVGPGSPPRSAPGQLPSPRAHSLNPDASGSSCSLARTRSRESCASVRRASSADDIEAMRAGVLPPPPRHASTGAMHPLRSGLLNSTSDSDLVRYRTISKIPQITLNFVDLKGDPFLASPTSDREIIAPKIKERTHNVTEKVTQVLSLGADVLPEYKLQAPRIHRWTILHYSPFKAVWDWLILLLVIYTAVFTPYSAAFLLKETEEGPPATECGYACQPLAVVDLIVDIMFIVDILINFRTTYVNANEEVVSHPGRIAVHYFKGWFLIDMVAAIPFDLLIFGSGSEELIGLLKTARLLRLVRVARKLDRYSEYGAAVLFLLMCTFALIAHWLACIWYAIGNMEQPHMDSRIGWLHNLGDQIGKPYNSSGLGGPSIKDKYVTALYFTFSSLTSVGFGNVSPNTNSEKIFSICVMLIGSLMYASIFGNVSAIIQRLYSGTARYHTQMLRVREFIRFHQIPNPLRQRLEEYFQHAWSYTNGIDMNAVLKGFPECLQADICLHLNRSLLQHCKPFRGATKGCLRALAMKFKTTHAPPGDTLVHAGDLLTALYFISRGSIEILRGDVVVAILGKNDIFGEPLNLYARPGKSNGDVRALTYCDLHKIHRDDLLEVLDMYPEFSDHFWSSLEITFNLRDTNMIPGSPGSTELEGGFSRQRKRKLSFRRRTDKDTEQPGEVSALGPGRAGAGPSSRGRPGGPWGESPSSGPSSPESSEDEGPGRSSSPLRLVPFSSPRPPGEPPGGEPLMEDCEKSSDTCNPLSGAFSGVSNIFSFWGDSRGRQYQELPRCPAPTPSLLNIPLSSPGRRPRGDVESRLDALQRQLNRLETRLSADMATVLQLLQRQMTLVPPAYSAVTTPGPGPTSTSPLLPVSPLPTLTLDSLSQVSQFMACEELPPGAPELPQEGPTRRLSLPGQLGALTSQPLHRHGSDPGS

Structure (SMILES) | tested on | assay | test system | setting | quantity | result
CC(C)c1nc(N(C)S(C)(=O)=O)nc(-c2ccc(F)cc2)c1/C=C/[C@@H](O)C[C@@H](O)CC(=O)O |  |  | healthy human subjects | oral, dose not given, study CL-0537 safety set | incidence of injury or poisoning | 3.6%
CC[C@H](C)[C@H](NC(=O)[C@H](CC(C)C)NC(=O)[C@H](Cc1c[nH]c2ccccc12)NC(=O)[C@H](CCC(N)=O)NC(=O)[C@@H](NC(=O)[C@H](Cc1ccccc1)NC(=O)[C@H](C)NC(=O)[C@H](CCCCNC(=O)COCCOCCNC(=O)COCCOCCNC(=O)CC[C@H](NC(=O)CCCCCCCCCCCCCCCCCCC(=O)O)C(=O)O)NC(=O)[C@H](CCC(N)=O)NC(=O)[C@H](C)NC(=O)[C@@H](NC(=O)[C@H](CCCCN)NC(=O)[C@H](CC(=O)O)NC(=O)[C@H](CC(C)C)NC(=O)C(C)(C)NC(=O)[C@@H](NC(=O)[C@H](CO)NC(=O)[C@H](Cc1ccc(O)cc1)NC(=O)[C@H](CC(=O)O)NC(=O)[C@H](CO)NC(=O)[C@@H](NC(=O)[C@H](Cc1ccccc1)NC(=O)[C@@H](NC(=O)CNC(=O)[C@H](CCC(=O)O)NC(=O)C(C)(C)NC(=O)[C@@H](N)Cc1ccc(O)cc1)[C@@H](C)O)[C@@H](C)O)[C@@H](C)CC)[C@@H](C)CC)C(C)C)C(=O)N[C@@H](C)C(=O)NCC(=O)NCC(=O)N1CCC[C@H]1C(=O)N[C@@H](CO)C(=O)N[C@@H](CO)C(=O)NCC(=O)N[C@@H](C)C(=O)N1CCC[C@H]1C(=O)N1CCC[C@H]1C(=O)N1CCC[C@H]1C(=O)N[C@@H](CO)C(N)=O |  |  | healthy subjects | 0.5 mg, Dyspepsia, multiple ascending dose | TEAE incidence | 0%
C=C(C[C@@]12C[C@@H](C)C[C@H](O1)[C@H]1O[C@]3(C[C@H]1O2)NC[C@H](C)C[C@@H]3C)[C@H]1O[C@@](O)([C@@H](O)[C@@H]2C[C@H]3O[C@@]4(CC[C@]5(CC=C[C@@H](/C=C/CCC(=O)O)O5)O4)[C@H](C)C[C@H]3O2)[C@H](C)C[C@@H]1C | Voltage-gated inwardly rectifying potassium channel KCNH2 (KCNH2, Homo sapiens, UniProt Q12809) | ion current, inhibitor, patch clamp | HEK293 expressing hERG | room temperature, peak tail current | IC50 | 840 nM
Nc1ncnc2c([C@@H]3N[C@H](CO)[C@@H](O)[C@H]3O)c[nH]c12 | Marburg marburgvirus | virus production | HeLa, Musoke | 0.4 µM | inhibition | 6.6%
COc1ccc2c3c([nH]c2c1)[C@H](C=C(C)C)N1C(=O)[C@@H]2CCCN2C(=O)[C@@H]1C3 | ATP-dependent translocase ABCB1 (ABCB1, Homo sapiens, UniProt P08183) | JC-1 efflux, inhibitor | Jurkat-DNR |  | IC50 | inactive
CC(C)(C)[C@@H]1NC(=O)O[C@@H]2CCC[C@H]2OC/C=C/C(F)(F)c2nc3ccccc3nc2O[C@@H]2C[C@@H](C(=O)N[C@]3(C(=O)NS(=O)(=O)C4(C)CC4)C[C@H]3C(F)F)N(C2)C1=O | Replicase polyprotein 1ab, main protease (rep, Severe acute respiratory syndrome coronavirus 2, UniProt P0DTD1) | reporter gene (mKate2), inhibitor |  | 20 µM | inhibition | 0.912%
Cn1cnc(Cn2c(=O)[nH]/c(=N\c3cc4cn(C)nc4cc3Cl)n(Cc3cc(F)c(F)cc3F)c2=O)n1 |  |  | human, all renal function groups | oral, 375 mg | anaemia TEAE, Moderate severity | 0%
O=c1cc(-c2ccccc2)oc2c(O)c(O)ccc12 | Spike glycoprotein (Severe acute respiratory syndrome coronavirus 2, UniProt P0DTC2) | binding, BLI |  |  | Kd | 39.7 µM

Excerpt of the above:
Structure (SMILES) | tested on | assay | test system | setting | quantity | result
CC(C)c1nc(N(C)S(C)(=O)=O)nc(-c2ccc(F)cc2)c1/C=C/[C@@H](O)C[C@@H](O)CC(=O)O |  |  | healthy human subjects | oral, dose not given, study CL-0537 safety set | incidence of injury or poisoning | 3.6%
